Measured values collected from several papers.
Lines come from different studies, so protocols differ. ± gives the spread as reported.

Compound | cell line | read-out | method | time | notes | GI50 [µM]
COC1CN([C@H]2CC[C@H]([C@@]3(C)Oc4c(Cl)cc(C(=O)NCc5c(SC)cc(C)[nH]c5=O)c(C)c4O3)CC2)C1 | J82 | cell growth or viability | ATP luminescence | 12 days | – | > 1
NC12CCN(C(=O)c3cc(-c4cccc5c4CCC5)no3)CC1C2 (centres unmarked) | LS180 | cell growth or viability | MTT | 48 h | – | ~6
CC(=C(c1ccc(O)cc1)c1ccc(Cl)cc1)c1ccc(Cl)cc1 | MDA-MB-435 | cell growth or viability | SRB | – | – | 0.6
CCN(CC)c1ccc(-c2csc3c(C(=O)c4ccc(C)cc4)cc(=O)[nH]c23)cc1 | most of six cancer lines | – | SRB | – | – | < 20
C[n+]1ccc(/C=N/NC(=O)c2cncc(C(=O)N/N=C/c3cc[n+](C)c4ccccc34)n2)c2ccccc21 | A549 cisplatin-resistant | – | CellTiter-Glo | 96 h | – | 64.5 ± 2.9
CC(Cc1ccc(Cl)cc1)=C(c1ccc(Cl)cc1)c1ccc(OCCN(C)C)cc1 | SNB-75 | cell growth or viability | SRB | – | – | 3.47
C1=[N+]2CCCC[N+]3=Cc4ccc5[n]4[Au-]23[n]2c1ccc2-c1nc2ccccc2nc1-5.F[P-](F)(F)(F)(F)F | breast cancer cell lines | – | – | – | NCI60 panel mean | 5
CC/C=C\C/C=C\C/C=C\C/C=C\C/C=C\C/C=C\CCC(=O)Nc1ccn(C2OC(CO)C(O)C2(F)F)c(=O)n1 (centres unmarked) | MDA-MB-435 | cell growth or viability | SRB | – | – | 0.311
C[n+]1cc(NC(=O)c2ccc3ccc4ccc(C(=O)Nc5cc6ccccc6[n+](C)c5)nc4c3n2)cc2ccccc21 | A549 cisplatin-resistant | – | CellTiter-Glo | 96 h | – | 6.6 ± 0.6
CCN(CC)c1ccc(-c2csc3c(C(=O)c4ccc(OC)cc4)cc(=O)[nH]c23)cc1 | most of six cancer lines | – | SRB | – | – | < 20
CCCC(C)NC(=O)C(Nc1ccccc1C(=O)c1ccccc1)c1cn(C)c2ccccc12 (centres unmarked) | MIA | cell growth or viability | MTT | 72 h | – | 6.9

A few entries again:
Compound | cell line | read-out | method | time | notes | GI50 [µM]
CCCC(C)NC(=O)C(Nc1ccccc1C(=O)c1ccccc1)c1cn(C)c2ccccc12 (centres unmarked) | MIA | cell growth or viability | MTT | 72 h | – | 6.9
